Measurements collected from several papers.
Every numbered part comes from another study and shows a few of its results, in no order.

Sample 1 — technique: RNA Bind-n-Seq; molecule type: RNA; matrix: in vitro; concentration: 1 µM; notes: whole 134-nt RNA, ends assumed; together with: 150 mM KCl; baseline: input library; direction: higher = stronger binding
Target: Ras GTPase-activating protein-binding protein 1, RRM domain (G3BP1, Homo sapiens, UniProt Q13283)
Chain of UniProt Q13283 (whole entry, looked up): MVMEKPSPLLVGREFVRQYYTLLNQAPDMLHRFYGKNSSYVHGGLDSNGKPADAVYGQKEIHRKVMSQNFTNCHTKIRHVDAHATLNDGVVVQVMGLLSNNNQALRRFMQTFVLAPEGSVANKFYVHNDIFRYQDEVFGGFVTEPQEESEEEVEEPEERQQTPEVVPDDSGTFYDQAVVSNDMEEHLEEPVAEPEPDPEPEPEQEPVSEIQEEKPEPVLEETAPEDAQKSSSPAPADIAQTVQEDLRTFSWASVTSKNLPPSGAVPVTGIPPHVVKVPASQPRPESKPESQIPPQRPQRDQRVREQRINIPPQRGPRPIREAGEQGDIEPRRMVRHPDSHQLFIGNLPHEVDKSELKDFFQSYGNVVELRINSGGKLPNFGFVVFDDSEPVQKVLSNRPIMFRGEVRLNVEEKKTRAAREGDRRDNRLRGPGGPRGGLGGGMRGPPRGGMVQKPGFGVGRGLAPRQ
Strand | log2 enrichment
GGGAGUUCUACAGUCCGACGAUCGGUGGAAUCCAUAGAGCUCCCCAUGGACAACAAGACCAAUAAGAGGCGUGGGUUCUGCUUUAUUACCUUUAAGGAAGAAGAACCAGUGAAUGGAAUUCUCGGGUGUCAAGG | -0.446
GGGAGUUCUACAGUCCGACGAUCGUCCUGUGCUACACAUCGUAUGUACCGAAUCGGGAAAAGGGGAAAAGGGGAAAAGGGGAAAGUAUUAUGUUACGCCGUUCGGAUCUGCACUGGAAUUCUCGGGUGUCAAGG | 0.528
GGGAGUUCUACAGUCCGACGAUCGCAGGAAGUAAAAACAAAUGGAAUUGCUUCGGAUAGUGGCAGGGGUGGGGGUUGCUAAGGAAAGGGUGGGAUGGGAGUGGGUAAAGAGUUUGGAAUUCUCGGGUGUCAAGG | 1.27
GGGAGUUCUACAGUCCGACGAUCACCAUGCAGGUGGGCAUCUUUGGGAAGUGGGGCAAGGGGGGGAUAGGGAGGGGGGUAACACUUUGGGAACAGUUGGUCCCAGGUCGUUUCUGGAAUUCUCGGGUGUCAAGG | 0.923
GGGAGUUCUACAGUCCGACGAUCUGGCCCUGGUGGCAUGCGGGGAGGAAGAGGUGGCCUGAUGGAUCGUGGUGGUCCCGGUGGAAUGUUCAGAGGUGGCCGUGGUGGAGACAGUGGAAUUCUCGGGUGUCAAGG | 1.06
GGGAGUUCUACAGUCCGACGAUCACCAUGCAGGUGGGCAUCUAUGGGAAGUGGGGCAAGGGGGGGAUAGGGAGGGGGGUAACACUUUGGGAACAGGUGGUCCCAGGUCGUUUCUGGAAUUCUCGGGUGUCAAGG | -0.529
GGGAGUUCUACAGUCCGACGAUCCACAGACAACACGCACCCACAGAGACACAGAGGGAAGGGGUUGGGAUGGGGACAGGGUGCACAGCAGGGCGGGGUAGGACCCCAGCCCCUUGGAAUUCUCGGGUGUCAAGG | -0.011
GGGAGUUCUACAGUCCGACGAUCUCUGAGGUCACCAAGCCUCCUCCUUGCUUGGAGAACUCCUCGCCUCCCUCCAGGAUUCCGGAGCCUGAAUCCCCAGCGAAGCCAAACGUCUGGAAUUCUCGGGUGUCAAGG | -0.364
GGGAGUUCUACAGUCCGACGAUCCUCAAGUCCUGUGCUACACAUCGUAUGUACCGAAUCGGUUUUUGGAGGAAAGGAAAGUAUUAUGUUACGCCGUUCGGAUCUGCACUUCCAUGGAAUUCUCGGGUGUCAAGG | -0.144
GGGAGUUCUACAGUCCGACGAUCAAGUCCUGUGCUACACAUCGUAUGUACCGAAUCGGGUUUGGGGUUUGGGGUUUGGGAAAGUAUUAUGUUACGCCGUUCGGAUCUGCACUUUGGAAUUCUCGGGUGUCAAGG | 0.499

Sample 2 — technique: RNA Bind-n-Seq; molecule type: RNA; matrix: in vitro; concentration: 365 nM; baseline: no-protein control; direction: higher = stronger binding
Target: RNA binding protein fox-1 homolog 2, RRM domain, GST-SBP tag (RBFOX2, Homo sapiens, UniProt O43251-10, residues 100-194)
Notes: natural RNA segment, single round, ends assumed
Construct (chain): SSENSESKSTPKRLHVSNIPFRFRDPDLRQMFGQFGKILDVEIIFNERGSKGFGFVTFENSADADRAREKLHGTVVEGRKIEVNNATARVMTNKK
Strand | RBNS enrichment (R)
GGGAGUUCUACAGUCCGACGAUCAAUUGCCAAUUGUUUUGCAGUACUUUAUUAUAUUGGGUGUCUUGUCUUUCUUGGGCUUUUAGUUAGCUGAUGAAUGAAUACAUUAGACACUUCUGGGUUUUAGUUGGGAUUGGAAUUCUCGGGUGCCAA | 1.25
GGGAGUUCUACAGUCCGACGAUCUCAGUUAAUCACUCCCACAACUUUGAGCUGUGAGUUUUACUGGUGGAAGGAACUUUAACAGGUCUUCGCUCUUGUCAUUAGAUAUCAAAGAACUGAAAUUAGUUGGAAUUUGGAAUUCUCGGGUGCCAA | 0.285
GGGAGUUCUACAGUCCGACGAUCUCCCUGGCUCCCUCUACACGCACAUCCCAGAGCUGCCUCCCAGGGCUGGGAUCUCAGAGGUAGGGUGGCAGGGGCCUGGUAAGCAGAAUUCAAGCAGCACUUGGUCUUGGUGGAAUUCUCGGGUGCCAA | 0.468
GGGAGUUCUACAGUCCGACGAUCGCAAGUUCUCAUAAACCAGCCGCUACCUUUGGACCCCUCACUCUAUAAUUCCCUGCCCUCUCCCAUCUGAUUGGCUUGUUAAGUGGAGCGUAUGUAAUAUAGAGACUCCUUGGAAUUCUCGGGUGCCAA | 0.68
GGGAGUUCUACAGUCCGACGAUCCCCUUCACCUCGCACUUACUGCCUGGGAACCACGGCCCUUCUCUUCUGUGGGUCUGUACCAGGUACUCCAGGCCAGCCCAUGGGCCCGGGGCCUGACCCCAACACCUGCAUGGAAUUCUCGGGUGCCAA | 2.02
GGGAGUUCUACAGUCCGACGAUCGAAGGCAGAGAGCUCUGCCUAGGGAAUGCCUCCGCCAUAAGGGGCCACUGCUUGUGUCAAGGGAGGCAGGCAGAAGAGAUGAGUCCAUUCCUCAGGGACAGGUACCUGUAUGGAAUUCUCGGGUGCCAA | 0.799
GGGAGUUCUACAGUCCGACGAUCCAGUGUUAUGAUCUCUUCCAGCUGUGCUCCAGUAGGGCGGAGAGCCUCGCACGUGCACCAGACCCCAUGAGAGGGCCGAGCUCUGCGAGGGGGAAAUGCCUUUGCAGCUCUGGAAUUCUCGGGUGCCAA | 0.562
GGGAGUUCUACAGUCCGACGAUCUCACAGCUCGGUUUUUCUUAUUUGUUGAGUGCUAUUACCAGGAGAAAUUCAAAUAAAUAUUCAAUUUAUUAUGAAUUUCAUUAUUUAUUUAUAAUAGUUUUUCUUUUAUAUGGAAUUCUCGGGUGCCAA | 0.996
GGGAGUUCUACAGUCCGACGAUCGCCCUGUUCCCUAAUAGAAACAUUCCCCUUGUUUUCCAGCAGUGGGUGGCUUCCUCGAACGAUUAAACAAACUAGGUGCUUGUAUAUAAUUUAUUACAGUUUACUCUACUUGGAAUUCUCGGGUGCCAA | 0.4

Sample 3 — technique: RNA Bind-n-Seq; molecule type: RNA; matrix: in vitro; concentration: not given; baseline: input RNA pool; direction: higher = stronger binding
Target: RING finger protein unkempt homolog, zinc fingers 1-6, GST-SBP tag (UNK, Homo sapiens, UniProt Q9C0B0, residues 30-357)
Notes: RNA with constant flanks, human and mouse sites, ends assumed
Residues (chain): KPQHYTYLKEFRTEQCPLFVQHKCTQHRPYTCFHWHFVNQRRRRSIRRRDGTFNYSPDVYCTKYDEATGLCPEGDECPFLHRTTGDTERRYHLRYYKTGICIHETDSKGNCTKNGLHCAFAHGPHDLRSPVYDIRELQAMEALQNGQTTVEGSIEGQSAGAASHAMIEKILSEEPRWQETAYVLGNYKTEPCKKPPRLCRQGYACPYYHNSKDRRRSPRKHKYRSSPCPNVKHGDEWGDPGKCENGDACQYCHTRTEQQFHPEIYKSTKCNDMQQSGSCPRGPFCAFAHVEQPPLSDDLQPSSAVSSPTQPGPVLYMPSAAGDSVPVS
Strand | bound/input enrichment [ratio]
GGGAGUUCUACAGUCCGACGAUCUCAUUGUAAAUUACCUUUGUGUGUACAUUUUUACUGUAUUUGAGACAUUUUUUGUGUGUGACUAGUUAAUUUUGCAGGAUGUGCCAUAUCAUUGAACGGAACUAAAGUCUGUGACAGUGGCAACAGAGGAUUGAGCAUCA | 0.519
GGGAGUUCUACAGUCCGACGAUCAAGAGUCAAGGUGGGGAGCCAACAUACAACGUUGCUGUUGGCAGGGCCGGGAGAGUCUUGGUCUUUGUAAUGGGAAAAGAAGGGGUCCAUGGAGGCGGAUUGAAUAAGAAGGCAUACUCACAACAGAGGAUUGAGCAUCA | 0.455
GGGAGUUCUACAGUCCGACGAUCGGUAUCAGGUCUCAAAACCAAGGUUCUUUGGCCCAGGGAAAGAAUUUUUUAAUGAGCAAAUUUUCAUCUCUAAAUCAAAAAGUGAAGCAGACCAAAUCCAAUGUAAAUAUUGGCAACCUCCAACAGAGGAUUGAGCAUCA | 0.215
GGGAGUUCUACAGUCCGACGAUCCAGAGAGCUUGACCAAGUUACAUAUUCUAGAGAUCGUCCUGAGUGCCAAGCACGUUUAUAAGUAGGGCGUGUAUUCCAGUCCUUUCUGUCAUUCUGUGUGUGUGUGUGUGUGCACUUAUGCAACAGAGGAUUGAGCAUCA | 0.409
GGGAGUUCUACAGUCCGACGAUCAGAGCUGCCCGUGGUGGGUGUCAGCAGUGUGUCAUGGUCGCCACACAGCAGGGGGUGUGAUAGGUCAGCCACGUGAUCCUCAUCUGCACAGAAGCAGAGAGGGCCCCAGGCCCCUGGCCUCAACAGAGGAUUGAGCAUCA | 0.206
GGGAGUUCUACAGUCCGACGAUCUACAUUUUUUUCAGCCUUUAUCUAGAUGAGGUAAAGGGAAUCAUUCUUAUGGUGCUCUUGGAGAGUUUCAGGCCUGUGCAUGUGUGUACAGCAGGAGGUAAUAUGCUAUAAUGUCUGCUGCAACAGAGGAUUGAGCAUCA | 0.273
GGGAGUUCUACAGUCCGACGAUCAGCACCCCCGGGAGCGGGGCUCGCAGCCGGGGACCAGCCCUGCAGCGCCCAUCUGGGGGCUAGUUCUUAACUCUUCCUCCACGGAGCCCCAGACGGGUCCCCUCCCUUCUUGAUCCUUUUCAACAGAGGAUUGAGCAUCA | 0.167
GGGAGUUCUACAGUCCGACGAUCGUCAGAUUUGAAAAUGCAGAUUUAAAUGAUACAUCAAGAAAUCUGGAAUUUCAUGAAAUACAUAGUACUGGGAAUGAACCGCCUUUGUUGAUUAUGAUUGGCUACAGUGAUGGAAUGCAGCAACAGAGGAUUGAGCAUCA | 0.638
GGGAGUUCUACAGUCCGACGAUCCCCAUGGAGGCGUCCAGCGAGCCGCCGCUGGAUGCUAAGUCCGAUGUCACCAACCAGCUUGUAGAUUUUCAGUGGAAACUGGGUAUGGCUGUGAGCUCAGACACUUGCAGAUCUCUUAAGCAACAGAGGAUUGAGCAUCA | 0.144
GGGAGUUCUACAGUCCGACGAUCGGAGUAUCAGUCCCGCGUCACUGCCGGGGGACCCUGCAGCUUCGGCUCAGGGUCUACGCCUGUCAUCGGGGGUAACACCUUCAAUCUCAAGGCCAGCCGUGGCAACGACCGUAAUCGCAUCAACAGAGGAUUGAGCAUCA | 0.0649
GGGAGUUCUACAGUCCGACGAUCCAGAUCCGAUGCCUCUGCCAGCGUGGGGCUGAGGUCACUGUGGUACCCUGGGACCAUGCACUAGACAGCCAAGAGUAUGAGGGUCUCUUCUUAAGUAAUGGGCCUGGUGACCCUGCCUCCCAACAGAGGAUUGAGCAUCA | 0.134

Sample 4 — technique: universal PBM; molecule type: double-stranded DNA, one strand shown; matrix: in vitro; concentration: 600 nM; direction: higher = stronger binding
Target: Sal-like protein 4, full length isoform A (SALL4, Homo sapiens, UniProt Q9UJQ4, residues 1-1053)
Chain of UniProt Q9UJQ4 (whole entry, looked up): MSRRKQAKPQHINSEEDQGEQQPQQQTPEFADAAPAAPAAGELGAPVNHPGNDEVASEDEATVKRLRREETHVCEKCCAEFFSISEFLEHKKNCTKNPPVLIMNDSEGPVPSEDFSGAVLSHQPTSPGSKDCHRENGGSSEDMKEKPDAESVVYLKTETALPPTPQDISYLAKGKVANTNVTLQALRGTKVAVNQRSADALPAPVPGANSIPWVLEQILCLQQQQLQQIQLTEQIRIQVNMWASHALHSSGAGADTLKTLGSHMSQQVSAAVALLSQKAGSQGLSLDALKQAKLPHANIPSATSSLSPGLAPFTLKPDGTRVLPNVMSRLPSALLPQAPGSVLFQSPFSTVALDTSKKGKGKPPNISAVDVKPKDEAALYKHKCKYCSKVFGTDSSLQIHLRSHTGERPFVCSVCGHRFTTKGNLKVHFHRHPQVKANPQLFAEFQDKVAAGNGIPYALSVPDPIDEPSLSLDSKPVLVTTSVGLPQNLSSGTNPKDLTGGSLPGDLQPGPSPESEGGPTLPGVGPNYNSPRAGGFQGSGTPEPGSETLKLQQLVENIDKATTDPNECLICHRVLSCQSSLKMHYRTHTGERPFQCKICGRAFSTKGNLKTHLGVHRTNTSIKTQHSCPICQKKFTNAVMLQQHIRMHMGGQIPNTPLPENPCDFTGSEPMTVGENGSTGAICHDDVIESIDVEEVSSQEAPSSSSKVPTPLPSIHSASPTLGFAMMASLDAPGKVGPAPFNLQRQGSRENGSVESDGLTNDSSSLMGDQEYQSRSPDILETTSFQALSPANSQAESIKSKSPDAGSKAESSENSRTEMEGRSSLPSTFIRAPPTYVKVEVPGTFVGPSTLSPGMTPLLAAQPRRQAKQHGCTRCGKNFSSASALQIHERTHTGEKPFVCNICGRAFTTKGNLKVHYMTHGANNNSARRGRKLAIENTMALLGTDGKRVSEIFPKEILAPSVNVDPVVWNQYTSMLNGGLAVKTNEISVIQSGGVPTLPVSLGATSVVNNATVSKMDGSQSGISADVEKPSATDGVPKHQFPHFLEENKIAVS
Notes: 8-mer, flanks averaged, mean of replicates
Strand | E-score
AGGCCTGG | -0.404
AGTTTCAT | 0.23
TAGTCCAA | 0.0259
TGCCTCAA | -0.0688
CACTCACC | -0.119
AGCCCCGG | -0.433
CTACCGAC | -0.12
AAACAACG | 0.0637
GCAGCGGC | -0.371
CGCCCGGC | -0.386
AGCGGTGC | -0.194
TACAGGAA | 0.0657
ATTACTGC | 0.157
CAAAACTC | 0.0928
AAGTCAGG | -0.0654
AGGGGTTC | -0.304
TACCACGA | 0.0388
CGCCGTTA | -0.0314
CCTCCACC | -0.238
GCGTCTAA | 0.0842
AATAAATG | 0.349

Repeated from above (sample 3):
Strand | bound/input enrichment [ratio]
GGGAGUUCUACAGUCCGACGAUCGGAGUAUCAGUCCCGCGUCACUGCCGGGGGACCCUGCAGCUUCGGCUCAGGGUCUACGCCUGUCAUCGGGGGUAACACCUUCAAUCUCAAGGCCAGCCGUGGCAACGACCGUAAUCGCAUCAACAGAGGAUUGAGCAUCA | 0.0649
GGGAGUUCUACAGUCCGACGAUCCAGAUCCGAUGCCUCUGCCAGCGUGGGGCUGAGGUCACUGUGGUACCCUGGGACCAUGCACUAGACAGCCAAGAGUAUGAGGGUCUCUUCUUAAGUAAUGGGCCUGGUGACCCUGCCUCCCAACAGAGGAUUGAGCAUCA | 0.134
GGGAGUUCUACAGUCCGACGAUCGUCAGAUUUGAAAAUGCAGAUUUAAAUGAUACAUCAAGAAAUCUGGAAUUUCAUGAAAUACAUAGUACUGGGAAUGAACCGCCUUUGUUGAUUAUGAUUGGCUACAGUGAUGGAAUGCAGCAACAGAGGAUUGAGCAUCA | 0.638
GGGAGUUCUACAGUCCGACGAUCAAGAGUCAAGGUGGGGAGCCAACAUACAACGUUGCUGUUGGCAGGGCCGGGAGAGUCUUGGUCUUUGUAAUGGGAAAAGAAGGGGUCCAUGGAGGCGGAUUGAAUAAGAAGGCAUACUCACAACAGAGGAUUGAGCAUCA | 0.455
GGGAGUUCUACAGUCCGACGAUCGGUAUCAGGUCUCAAAACCAAGGUUCUUUGGCCCAGGGAAAGAAUUUUUUAAUGAGCAAAUUUUCAUCUCUAAAUCAAAAAGUGAAGCAGACCAAAUCCAAUGUAAAUAUUGGCAACCUCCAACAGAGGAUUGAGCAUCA | 0.215
